Results pooled from the literature.
Protocols differ between the studies behind these lines. “And” joins repeats or separate records; there may be more than shown. ± marks the error that the study gave. Converted amounts (≈) assume the structure as drawn.
GBA1 R534H: Lysosomal acid glucosylceramidase (GBA1, Homo sapiens, UniProt P04062, R534H)
Chain of UniProt P04062 (whole entry, unmodified, looked up): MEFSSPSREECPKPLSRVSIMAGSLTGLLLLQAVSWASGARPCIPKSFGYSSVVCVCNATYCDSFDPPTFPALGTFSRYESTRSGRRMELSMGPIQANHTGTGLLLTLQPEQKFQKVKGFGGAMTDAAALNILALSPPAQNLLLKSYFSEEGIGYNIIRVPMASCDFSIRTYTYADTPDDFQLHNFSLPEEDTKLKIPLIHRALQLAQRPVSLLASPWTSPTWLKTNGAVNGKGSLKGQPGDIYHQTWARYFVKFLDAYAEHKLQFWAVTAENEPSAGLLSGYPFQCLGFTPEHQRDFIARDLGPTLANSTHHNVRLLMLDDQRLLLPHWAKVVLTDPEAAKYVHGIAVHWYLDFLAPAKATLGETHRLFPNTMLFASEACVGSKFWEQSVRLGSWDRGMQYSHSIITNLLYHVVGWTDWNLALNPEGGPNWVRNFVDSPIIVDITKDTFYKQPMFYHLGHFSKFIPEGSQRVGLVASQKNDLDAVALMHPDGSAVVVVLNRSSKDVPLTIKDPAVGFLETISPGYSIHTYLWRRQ

Structure (SMILES) | target or system | assay | system | setting | scale | endpoint | value
Cc1ccc(Nc2n[nH]c3nc(-c4ccccc4)nc(N)c23)cc1 | rhinovirus B5 | viral cytopathic effect | HeLa |  |  | IC50 | 10 nM
OC[C@H]1[C@@H](O)[C@H](O)[C@@H](O)CN1CCCCCOCc1ccc(-c2ccccc2)cc1F | GBA1 R534H | inhibitor, 4MU-β-D-glucopyranoside |  | with: 4MU-β-D-glucopyranoside |  | IC50 | 8000 nM
CC1=NN(c2cccc(F)c2)C(=O)/C1=N\Nc1ccc(S(N)(=O)=O)cc1 | Saccharomyces cerevisiae |  |  | 10 µg/mL |  | glucose uptake | 29.015 ± 0.00121%
NCCOCCO.O=C(O)C(Cl)Cl | Chenopodium album | herbicidal activity |  | 15 mg/mL, 21 days, pre-emergence greenhouse |  | inhibition | 0%
NNC(=O)c1ccncc1 | Mycobacterium marinum |  |  |  |  | MIC90 | 40 µM (≈ 5.49 µg/mL)
Cc1ccccc1C(c1c[nH]c(=O)[nH]c1=O)c1c[nH]c(=O)[nH]c1=O | HIV-1 subtype C | p24 antigen production, p24 ELISA |  | 250 µg/mL |  | inhibition | 55%
COc1ccc(CNc2nc([C@H]3CC[C@H](C(=O)O)CC3)nc3sc4ccccc4c23)cc1Cl | Cryptosporidium parvum | parasite growth, immunofluorescence imaging | HCT-8, Iowa | 2 µM |  | inhibition | 88.5% and 89.7%
COC1C=COC2(C)Oc3c(C)c(O)c4c(c3C2=O)C2=NC3(CCN(CC(C)C)CC3)NC2=C(NC(=O)C(C)=CC=CC(C)C(O)C(C)C(O)C(C)C(OC(=O)Nc2cscn2)C1C)C4=O (stereo not drawn) | Mycobacteroides abscessus | intracellular growth, Hill fit | THP-1 derived macrophages, ATCC 19977 |  |  | IC90 | 220 nM
O=c1[nH]cc(C(c2ccccc2Br)c2c[nH]c(=O)[nH]c2=O)c(=O)[nH]1 | HIV-1 subtype C | p24 antigen production, p24 ELISA |  | 31.25 µg/mL |  | inhibition | 31%
CC(C)(C)NCC(SS(=O)(=O)O)c1ccccc1 (stereo not drawn) | Schistosoma mansoni |  | mice | 400 mg/kg single dose, 1248 h, dosed day 7, perfused 52 | baseline: vehicle | female worm burden reduction | 37%
OC[C@@H]1[C@@H](O)[C@H](O)[C@@H](O)CN1CCCCCCC12CC3CC(CC(C3)C1)C2 | GBA1 R534H | inhibitor, 4MU-β-D-glucopyranoside |  | with: 4MU-β-D-glucopyranoside |  | IC50 | 60 nM
CC(=O)OC[C@H]1O[C@@H](Sc2sc(C(=O)c3ccc(Br)cc3)c(N)c2-c2nc3ccccc3s2)[C@H](OC(C)=O)[C@@H](OC(C)=O)[C@H]1OC(C)=O | Hepatitis C virus | viral replication, inhibitor | Huh7.5, genotype 4 ED43 | concentration not given, non-toxic dose, HCVcc |  | viral titre reduction | 26.7%
CC(C)n1ncc2c(C(=O)NC[C@@H](C)N)cc(C3CC3)nc21 | Enterovirus A71 | viral replication | Tainan/4643/1998 | 300 nM |  | plaque reduction | 72% and 69.7%
O=C(c1ccc(Cl)c([N+](=O)[O-])c1)N1CCN(c2ccccc2F)CC1 | Saccharomyces cerevisiae | CPY trafficking |  | 20 µM |  | mature CPY | 68%
O=C1C=C[C@@H](O/C=C2/C(=O)O[C@@H]3c4ccccc4C[C@H]23)O1 (racemic) | Phelipanche ramosa | seed germination, stimulant | seeds | 1 µM | baseline: (±)-GR24 | maximum germination stimulation | 98%
Cc1ccc(-c2nc(N)c3c(Nc4ccc(F)cc4)n[nH]c3n2)cc1F | rhinovirus B5 | viral cytopathic effect | HeLa |  |  | IC50 | 2070 nM
Cc1cccc2c1N(C(=O)n1ccnc1)CC2 | Arabidopsis thaliana |  | wild type, seeds | 30 µM, after high-temperature exposure, with: 1 µM karrikin KAR2 |  | germination rate | 36.1% and 52.4% and 46% and 35.1% and 43.2% and 59.4% and 50%
C=C[C@]1(C)C[C@@H](OC(=O)CSc2ccc(NC(=O)c3ccco3)cc2)[C@]2(C)[C@H](C)CC[C@]3(CCC(=O)[C@H]32)[C@@H](C)[C@@H]1O | Mycoplasma gallisepticum |  | infected chickens, lung | intramuscular, 5 mg/kg daily x3, 72 h | baseline: 0 h | lung mycoplasma load reduction | 0.925 log10 CFU/mL and 1.72 log10 CFU/mL and 1.05 log10 CFU/mL and 0.567 log10 CFU/mL and 1.29 log10 CFU/mL and 0.915 log10 CFU/mL and 1.46 log10 CFU/mL and 0.935 log10 CFU/mL
COc1nc(C(=O)Nc2ccc(C(=O)O)c(O)c2OC)ccc1NC(=O)c1ccc(NC(=O)[C@H](Cc2c[nH]nn2)NC(=O)c2ccc(NC(=O)/C(C)=C/c3ccc(O)cc3)cc2)cc1 | Salmonella enterica serovar Kentucky | broth microdilution | ciprofloxacin-resistant |  |  | MIC | 0.25 µg/mL (≈ 0.287 µM)
O=[N+]([O-])c1cc(Br)cc([N+](=O)[O-])c1NS(=O)(=O)c1ccc(Br)cc1 | Arabidopsis thaliana |  | Col-0 wild type, seeds | 1 µM |  | number of germinated seeds | 38 and 37
O=c1[nH]cc(C(c2cccc(Cl)c2)c2c[nH]c(=O)[nH]c2=O)c(=O)[nH]1 | HIV-1 subtype C | p24 antigen production, p24 ELISA |  | 3.9 µg/mL |  | inhibition | < 25%
Cc1cccc2c1N(C(=O)n1ccnn1)CC2 | Lactuca sativa |  | seeds | 50 µM, in darkness, with: without karrikin KAR1 |  | germination rate | 19.2% and 14.6% and 14.3% and 16.7% and 17.3% and 22%
C/C(=C\c1ccc(O)cc1)C(=O)Nc1ccc(C(=O)N[C@@H](Cc2c[nH]nn2)C(=O)Nc2ccc(C(=O)Nc3ccc(C(=O)Nc4ccc(C(=O)O)cc4)cc3)cc2)cc1 | Salmonella enterica serovar Kentucky | broth microdilution | ciprofloxacin-resistant |  |  | MIC | 0.25 µg/mL (≈ 0.315 µM)
CSc1ccc(Nc2n[nH]c3nc(-c4ccccc4)nc(N)c23)cc1 | rhinovirus B5 | viral cytopathic effect | HeLa |  |  | IC50 | 30 nM

Structure (SMILES) | target or system | assay | system | setting | scale | endpoint | value
CC1=CC(OC=C2C(=O)OC3c4ccccc4CC23)OC1=O (racemic) | Arabidopsis thaliana |  | Col-0 |  |  | maximum germination | 85%
COc1cc(C(=O)O)ccc1NC(=O)c1ccc(NC(=O)c2ccc(NC(=O)[C@H](Cc3c[nH]nn3)NC(=O)c3ccc(NC(=O)/C(C)=C/c4ccc(O)cc4)cc3)cc2)c(OC)c1O | Salmonella Typhimurium | broth microdilution | TA100 |  |  | MIC | 0.063 µg/mL (≈ 0.0725 µM)
Cc1cc(C(=O)Nc2nc3cccc(C)c3n2[C@H]2CCCCN(C(=O)/C=C/CN(C)C)C2)ccn1 | Trypanosoma cruzi | intracellular amastigote growth | Tulahuen |  |  | EC50 | 61 nM and 27 nM
Nc1nc(-c2ccccc2)nc2[nH]nc(Nc3cccc(Cl)c3)c12 | rhinovirus B5 | viral cytopathic effect | HeLa |  |  | IC50 | 1150 nM
[2H]C([2H])(N)C([2H])([2H])NC(=O)c1cc(C2CC2)nc2c1cnn2C(C)C | Enterovirus A71 | viral replication | Tainan/4643/1998 | 30000 nM |  | plaque reduction | 100%
C=C(NC(=O)c1csc(-c2nc3c(cc2O)-c2nc(cs2)C(=O)NC(C(C)O)C(=O)NC(=C(C)OC)c2nc(cs2)C(=O)NC2c4nc(cs4)C(=O)NC(COC(=O)c4c5c6c(cccc6n4O)COC(=O)C(OC4CC(C)(O)C(N(C)C)C(C)O4)C2OC5)c2nc-3cs2)n1)C(N)=O (stereo not drawn) | Enterococcus faecalis |  | vancomycin-intermediate, 10 isolates | serum 0% |  | MIC50 | 0.0156 µg/mL (≈ 0.0109 µM)
C/C(=C\c1ccc(O)cc1)C(=O)Nc1ccc(C(=O)N[C@@H](Cc2c[nH]nn2)C(=O)Nc2ccc(C(=O)Nc3ccc(C(=O)Nc4ccc(C(=O)O)c(O)c4)c(O)c3)cc2)cc1 | Salmonella enterica serovar Kentucky | broth microdilution | ciprofloxacin-sensitive |  |  | MIC | 0.125 µg/mL (≈ 0.152 µM)
CC(C)n1ncc2c(C(=O)NCC(C)(C)N)cc(C3CC3)nc21 | Enterovirus A71 | viral replication | Tainan/4643/1998 | 300 nM |  | plaque reduction | 25.4% and 38.6%
CN(C)CCCSc1nc(-c2ccccc2)nc2c1CCC2 | Trypanosoma cruzi | reporter mRNA translation, inhibitor, item: capped polyadenylated Renilla luciferase mRNA | cell-free extract | concentration not given | baseline: control RNA | relative translation | 107%
N#Cc1ccc(Nc2n[nH]c3nc(-c4ccccc4)nc(N)c23)cc1 | rhinovirus B5 | viral cytopathic effect | HeLa |  |  | IC50 | 370 nM
O=C(NCC(O)(Cn1cncn1)c1ccc(F)cc1F)[c-]1cccc1.[Cl-].[Co+3].c1cc[cH-]c1 (racemic) | Trypanosoma cruzi |  | CL Brener |  | baseline: Vero IC50 over parasite IC50 | selectivity ratio | 27
CC[C@H]1OC(=O)[C@H](C)[C@@H](OC(=O)Cc2c(F)cccc2F)[C@H](C)[C@@H](O[C@@H]2O[C@H](C)C[C@H](N(C)C)[C@H]2O)[C@](C)(OC)C[C@@H](C)C(=O)[C@H](C)[C@@H](O)[C@]1(C)O | Cryptococcus neoformans | microbial growth | ATCC208821 |  |  | MIC | > 32 µg/mL
CCOc1c(NC(=O)c2ccc(NC(=O)c3ccc(NC(=O)[C@H](Cc4c[nH]nn4)NC(=O)c4ccc(NC(=O)/C(C)=C/c5ccc(O)cc5)cc4)cc3)c(OCC)c2O)ccc(C(=O)O)c1O | Salmonella enterica serovar Kentucky | broth microdilution | ciprofloxacin-resistant |  |  | MIC | 0.063 µg/mL (≈ 0.069 µM)
Nc1nc(-c2ccccc2)nc2[nH]nc(Nc3ccc(F)cc3F)c12 | rhinovirus B5 | viral cytopathic effect | HeLa |  |  | IC50 | 10 nM
COc1c(NC(=O)c2ccc(NC(=O)c3ccc(NC(=O)[C@H](Cc4c[nH]nn4)NC(=O)c4ccc(NC(=O)/C(C)=C/c5ccc(O)cc5)cc4)cc3)c(OC)c2O)ccc(C(=O)O)c1O | Salmonella enterica serovar Kentucky | broth microdilution | ciprofloxacin-sensitive |  |  | MIC | 0.063 µg/mL (≈ 0.0712 µM)
COc1ccc(N2CCN(C(=O)c3ccc(Cl)c([N+](=O)[O-])c3)CC2)cc1 | Saccharomyces cerevisiae | endocytic recycling | wild type | 20 µM, 2 h, 30 °C | baseline: cells | cells with PM GFP-Snc1 | 4%
CN(C(=O)c1ccn2ncc(-c3ccc(C(N)=O)cc3)c2c1)c1ccc(C#N)cn1 | Cryptosporidium parvum |  | neonatal calf | dose not given, day of third treatment |  | reduction in oocyst shedding | 2 log
CC1=C(C)[C@H](O/C=C2/C(=O)O[C@@H]3c4ccccc4C[C@H]23)OC1=O (racemic) | Phelipanche ramosa | seed germination, stimulant | seeds | 1 µM | baseline: (±)-GR24 | maximum germination stimulation | 95%
COc1nc(C(=O)O)ccc1NC(=O)c1ccc(NC(=O)c2ccc(NC(=O)[C@H](Cc3c[nH]nn3)NC(=O)c3ccc(NC(=O)/C(C)=C/c4ccc(O)cc4)cc3)cc2)c(OC)c1O | Salmonella enterica serovar Kentucky | broth microdilution | ciprofloxacin-sensitive |  |  | MIC | 4 µg/mL (≈ 4.6 µM)
FC(F)(F)c1cccc(CNc2nc(NC3CCN(Cc4ccccc4)CC3)c3nc[nH]c3n2)c1 | Cryptococcus neoformans | RNA-seq, item: CNAG_05321 | wild type | 48 µg/mL, 3 h | baseline: untreated wild type | log2 fold change | -0.124
O=c1[nH]cc(C(c2cccc(C(F)(F)F)c2)c2c[nH]c(=O)[nH]c2=O)c(=O)[nH]1 | HIV-1 subtype C | p24 antigen production, p24 ELISA |  | 15.6 µg/mL |  | inhibition | < 25%
COc1cc(C(=O)O)ccc1NC(=O)c1ccc(NC(=O)c2ccc(NC(=O)[C@H](Cc3c[nH]nn3)NC(=O)c3ccc(NC(=O)/C(C)=C/c4ccc(O)cc4)cc3)cc2)c(OC)c1 | Salmonella Typhimurium | broth microdilution | TA100 |  |  | MIC | 0.25 µg/mL (≈ 0.293 µM)
O=c1[nH]cc(C(c2ccc(Cl)cc2)c2c[nH]c(=O)[nH]c2=O)c(=O)[nH]1 | HIV-1 subtype C | p24 antigen production, p24 ELISA |  | 3.9 µg/mL |  | inhibition | < 25%
CCCCCCCCCCCCCCCCOP(=O)([O-])OCC[N+](C)(C)C | Trypanosoma cruzi | reporter mRNA translation, inhibitor, item: capped polyadenylated Renilla luciferase mRNA | cell-free extract | concentration not given | baseline: control RNA | relative translation | 127%

Excerpt of the above:
Structure (SMILES) | target or system | assay | system | setting | scale | endpoint | value
COc1ccc(N2CCN(C(=O)c3ccc(Cl)c([N+](=O)[O-])c3)CC2)cc1 | Saccharomyces cerevisiae | endocytic recycling | wild type | 20 µM, 2 h, 30 °C | baseline: cells | cells with PM GFP-Snc1 | 4%
CN(C)CCCSc1nc(-c2ccccc2)nc2c1CCC2 | Trypanosoma cruzi | reporter mRNA translation, inhibitor, item: capped polyadenylated Renilla luciferase mRNA | cell-free extract | concentration not given | baseline: control RNA | relative translation | 107%
N#Cc1ccc(Nc2n[nH]c3nc(-c4ccccc4)nc(N)c23)cc1 | rhinovirus B5 | viral cytopathic effect | HeLa |  |  | IC50 | 370 nM
